Measurements from different studies.
Each numbered part is a random draw from the data of one study; scales do not carry over between parts.

Sample 1
Target: Sal-like protein 4, full length isoform B (SALL4, Homo sapiens, UniProt Q9UJQ4-2, residues 1-616)
Technique: universal PBM
Molecule type: double-stranded DNA, one strand shown
Sample: in vitro
Concentration: not given
Setting: 8-mer, flanks averaged, mean of replicates
Reading: higher = stronger binding
Target sequence (chain): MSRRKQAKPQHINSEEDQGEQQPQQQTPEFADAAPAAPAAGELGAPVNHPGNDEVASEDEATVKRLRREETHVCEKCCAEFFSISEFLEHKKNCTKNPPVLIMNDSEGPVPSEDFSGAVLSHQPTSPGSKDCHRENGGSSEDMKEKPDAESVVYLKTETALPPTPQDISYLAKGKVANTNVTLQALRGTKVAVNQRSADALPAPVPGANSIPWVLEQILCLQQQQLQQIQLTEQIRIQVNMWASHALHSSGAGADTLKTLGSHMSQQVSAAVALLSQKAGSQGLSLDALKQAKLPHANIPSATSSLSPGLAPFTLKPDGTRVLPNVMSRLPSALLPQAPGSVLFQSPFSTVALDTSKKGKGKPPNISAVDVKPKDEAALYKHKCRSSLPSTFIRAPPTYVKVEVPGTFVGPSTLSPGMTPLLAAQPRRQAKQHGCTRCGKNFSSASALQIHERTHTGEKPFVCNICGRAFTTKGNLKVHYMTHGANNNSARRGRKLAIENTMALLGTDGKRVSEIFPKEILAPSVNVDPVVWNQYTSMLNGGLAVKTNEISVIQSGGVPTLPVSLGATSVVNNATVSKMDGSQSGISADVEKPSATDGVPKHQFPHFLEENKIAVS
For `AGCATTGG`, the E-score was 0.0404.
`AAGAAGGG` gave an E-score of -0.108.
`CCGAGCTA` gave an E-score of -0.105.
For `GTGTAAAC`, the E-score was 0.0358.
For `CATCAAAA`, the E-score was 0.126.
For `TAGGTGGA`, the E-score was 0.162.
`ACCGACCC` has an E-score of -0.165.
`GTACAGAA` gave an E-score of -0.0168.

Sample 2
Target: Replicase polyprotein 1ab, polymerase (rep, Severe acute respiratory syndrome coronavirus 2, UniProt P0DTD1)
Effect on: enzyme activity
Action: inhibitor
Concentration: 20 µM
For `CN1C[C@H](CNC(=O)OCc2ccccc2)C[C@@H]2c3cccc4c3c(cn4C)C[C@H]21`, the inhibition was 1.5%.
With `Cc1nc2c(O)cccc2c(=O)[nH]1` the inhibition was -4.52%.
With `C[C@](N)(Cc1ccc(O)cc1)C(=O)O` the inhibition was 2.84%.
`O=C(c1c(O)c2ccc(Cl)cc2[nH]c1=O)C1CC1` has an inhibition of 7.35%.
The inhibition of `CC1(C)C(=O)NC2=C1C(=O)C(=O)c1ccccc12` is reported as 38.8%.
With `Cn1c(Nc2ccc(C(F)(F)F)cc2)nc2cc(Oc3ccnc(-c4ncc(C(F)(F)F)[nH]4)c3)ccc21` the inhibition was -1.44%.
For `Cc1cc(CCC[C@H](CC(=O)NO)C(=O)N[C@H](C(=O)N[C@H](C)c2ccccc2)C(C)(C)C)ccc1-c1ccccc1`, the inhibition was -2.02%.
With `COc1cc2nc(N(C)CCCNC(=O)C3CCCO3)nc(N)c2cc1OC` (centres unmarked) the inhibition was 2.98%.
The inhibition of `COc1ccc(C(=O)c2c(C)n(CCN3CCOCC3)c3cc(I)ccc23)cc1` is reported as -0.48%.
`Cc1ccc(Cl)c(Nc2ccccc2C(=O)O)c1Cl` gave an inhibition of 26.9%.
For `Cc1cnc(Nc2ccc(N3CCN(C)CC3)cc2)nc1Nc1cccc(S(=O)(=O)NC(C)(C)C)c1`, the inhibition was 6.06%.
`O=C1OC2(c3cc(I)c(O)c(I)c3Oc3c2cc(I)c(O)c3I)c2c(Cl)c(Cl)c(Cl)c(Cl)c21` has an inhibition of 99.4%.
`CC(C)C[C@H](NC(=O)CN(C)C(=O)[C@H](Cc1ccccc1)NC(=O)[C@H](Cc1ccccc1)NC(=O)[C@H](CCC(N)=O)NC(=O)[C@H](CCC(N)=O)NC(=O)[C@@H]1CCCN1C(=O)[C@H](CCCCN)NC(=O)[C@@H]1CCCN1C(=O)[C@@H](N)CCCN=C(N)N)C(=O)N[C@@H](CCS(C)(=O)=O)C(N)=O` has an inhibition of -0.27%.
With `CCCCOc1ccc(CC/C=C2\SC(=O)N(CCN)C2=O)cc1` the inhibition was 2.46%.
With `OCc1ccccc1O` the inhibition was -0.97%.

Sample 3
Target: Replicase polyprotein 1ab, main protease (rep, Severe acute respiratory syndrome coronavirus 2, UniProt P0DTD1)
Effect on: enzyme activity
Action: inhibitor
Concentration: 20 µM
Setting: hit confirmation, with DTT
`C[n+]1c2cc(N)ccc2cc2ccc(N)cc21.Nc1ccc2cc3ccc(N)cc3nc2c1` gave an inhibition of 68.2%.
For `CC(C)c1cc(CNc2nc(Nc3cc(C4CC4)[nH]n3)cc(N3CCN(C)CC3)n2)on1`, the inhibition was -9.6%.
For `O=C1c2c(O)cc(O)cc2O[C@H](c2cc(O)c(O)c(O)c2)[C@H]1O`, the inhibition was -14.3%.
With `O=C(O)C(O)Cc1ccc(O)c(O)c1` (centres unmarked) the inhibition was -9.1%.

Sample 4
Target: Histone acetyltransferase KAT6A, both winged helices, GST fusion (KAT6A, Homo sapiens, UniProt Q92794, residues 1-181)
Technique: protein binding microarray
Molecule type: double-stranded DNA, one strand shown
Sample: in vitro
Concentration: not given
Setting: 8-mer, flanks averaged, mean of 2 arrays, mostly near background
Reference: not given
Reading: higher = stronger binding
Residues (chain): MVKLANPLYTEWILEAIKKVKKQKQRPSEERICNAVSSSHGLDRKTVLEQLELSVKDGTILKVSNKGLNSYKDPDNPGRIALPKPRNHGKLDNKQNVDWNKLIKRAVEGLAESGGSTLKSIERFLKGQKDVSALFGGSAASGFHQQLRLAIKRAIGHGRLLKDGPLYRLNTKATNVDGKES
With `CAGAGACG` the E-score was 0.0936.
`CTGGCAGC` gave an E-score of -0.0737.
The E-score of `AGCTCTAG` is reported as -0.0529.
`AAGGTGAT` gave an E-score of -0.179.
With `CATTGTTA` the E-score was -0.144.
The E-score of `GATGAAGA` is reported as -0.0191.
With `CCAATAGC` the E-score was -0.118.
The E-score of `GCTCTCAC` is reported as 0.00773.

A few entries again (sample 4):
With `CATTGTTA` the E-score was -0.144.
The E-score of `GCTCTCAC` is reported as 0.00773.
`CTGGCAGC` gave an E-score of -0.0737.
`AAGGTGAT` gave an E-score of -0.179.
